Experimental data gathered from unrelated publications.
Parts stem from different laboratories: compare values within a part only. Changes are numbered by the printed parent chain.

Set 1
Target: Phosphate system positive regulatory protein PHO4, full length, GST-tagged (PHO4, Saccharomyces cerevisiae, UniProt P07270, residues 1-312)
Technique: competition protein-binding microarray
Form: double-stranded DNA, one strand shown
Matrix: in vitro
Tested at: 2 µM
Setting: whole 60-bp probe, lowest competitor level
With: Cbf1 competitor, 0.05 µM
Direction: higher = stronger binding
Constant ends, left off below: … GTCTTGATTCGCTTGACGCTGCTG
Target sequence (chain): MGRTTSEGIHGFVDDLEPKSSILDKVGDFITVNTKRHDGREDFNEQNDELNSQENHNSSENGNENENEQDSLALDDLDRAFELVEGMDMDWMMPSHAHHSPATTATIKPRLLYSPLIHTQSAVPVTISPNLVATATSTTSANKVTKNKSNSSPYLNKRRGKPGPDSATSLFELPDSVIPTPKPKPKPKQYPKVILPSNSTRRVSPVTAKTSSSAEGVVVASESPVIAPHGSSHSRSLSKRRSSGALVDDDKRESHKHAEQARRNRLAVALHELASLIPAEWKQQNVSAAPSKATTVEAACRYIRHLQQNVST
Oligonucleotide | fluorescence intensity
AAATTACTAAGTTGCATTGTGGGTGACGCCGTATGA | 5130 a.u.
CGGGGTTAAGTTTGTGCTGTGGGTGGCTTGCAGCAG | 5250 a.u.
CTATAGGATAACCATCACGGCTAAAACGGTCGAATG | 4000 a.u.
ATGAGATACTTGAAACACGTTTCAAGAAGATTCAAG | 11000 a.u.
GTAGCAGATTCCTGGAACGTGCTTTCTCTCGAGGTA | 14700 a.u.
CTAACGAAGGTTTGGCAGGTGGGTGACAAGCCAAGT | 7250 a.u.
TGCGCAACAACTTTTCACGTGCGATTATGTCTAGAA | 14000 a.u.
GTTATGGAGATAACACACGTGCCGAGAGGAAAATAG | 19100 a.u.
GTCTTGTCTCATTGTCCCGTGGGTGTCCCCACTTCA | 9590 a.u.
TGCGCAACAACTTGTACAGTGGGTGTATGTCTAGAA | 4490 a.u.
ATGGGTCTGTTTACTCATGTGACGCTCTATGCGCTG | 5910 a.u.
CTTTCCCGATCTTGTCACCAAACTTTAGCACATTTG | 3630 a.u.

Set 2
Target: Fragile X messenger ribonucleoprotein 1, C-terminal low-complexity region (Fmr1, Mus musculus, UniProt P35922)
Technique: RNA Bind-n-Seq
Form: RNA
Matrix: in vitro
Tested at: 200 nM
Setting: whole 134-nt RNA, ends assumed
With: 150 mM KCl
Reference: input library
Direction: higher = stronger binding
Constant ends, left off below: GGGAGUUCUACAGUCCGACGAUC … UGGAAUUCUCGGGUGUCAAGG
Oligonucleotide | log2 enrichment
UCCUGUGCUACACAUCGUAUGUACCGAAUCGGAAAAAGGGGAAAAAGGGGAAAAAGGGGAAAGUAUUAUGUUACGCCGUUCGGAUCUGCA | 0.113
CCUCAAGUCCUGUGCUACACAUCGUAUGUACCGAAUCGGGGCGGCGGGCGGGAAAGUAUUAUGUUACGCCGUUCGGAUCUGCACUUCCAG | 0.937
CAAGUCCUGUGCUACACAUCGUAUGUACCGAAUCGGGGAAAGGGGUGGGGAGGGGAAAGUAUUAUGUUACGCCGUUCGGAUCUGCACUUC | 1.26
AGUCCUGUGCUACACAUCGUAUGUACCGAAUCGGGGAAAGGGGUUUUUGGGGUGGGGAAAGUAUUAUGUUACGCCGUUCGGAUCUGCACU | 0.841
GUCCUGUGCUACACAUCGUAUGUACCGAAUCGGCCCCCCGGGCCCCCCGGCCCCCCGGAAAGUAUUAUGUUACGCCGUUCGGAUCUGCAC | 0.154
UGCAUUUCCUGAGCUGAAGAAGGACCCAGACAUGGUGAAGGACAUCAUUAAUGAAGAAGAGGUGCAGUUUCUCAAGACUCUCAGCAGAGG | -1.06
CCUGUGCUACACAUCGUAUGUACCGAAUCGGGGUUUUUUUGGGGAAAAAGGGGAAAGGGGAAAGUAUUAUGUUACGCCGUUCGGAUCUGC | 0.235

Set 3
Target: CEBPA, bZIP domain (human)
Technique: DHFR protein complementation
Matrix: yeast
Setting: single substitutions, most at no-binding floor
Reference: wild-type JUN-FOS pair
Direction: higher = stronger binding
Parent: JUN, bZIP domain (human); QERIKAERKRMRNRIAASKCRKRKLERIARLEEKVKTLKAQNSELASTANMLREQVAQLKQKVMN; partner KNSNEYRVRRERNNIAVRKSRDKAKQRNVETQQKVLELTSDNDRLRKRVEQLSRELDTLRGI
Substitution | binding fitness [natural log]
M51S | -1.44
K39F | -1.53
L31Y | -1.44
A40S | -1.5
A49C | -1.48
L38T | -1.45
A49E | -1.42
L38G | -1.5
S43P | -1.51
R30T | -1.23
V35A | -1.49
K39D | -1.34
K34H | -1.54
E44G | -1.51

Set 4
Target: RING finger protein unkempt homolog, zinc fingers 1-6, GST-SBP tag (UNK, Homo sapiens, UniProt Q9C0B0, residues 30-357)
UniProt Q9C0B0, sequence (30-357, looked up): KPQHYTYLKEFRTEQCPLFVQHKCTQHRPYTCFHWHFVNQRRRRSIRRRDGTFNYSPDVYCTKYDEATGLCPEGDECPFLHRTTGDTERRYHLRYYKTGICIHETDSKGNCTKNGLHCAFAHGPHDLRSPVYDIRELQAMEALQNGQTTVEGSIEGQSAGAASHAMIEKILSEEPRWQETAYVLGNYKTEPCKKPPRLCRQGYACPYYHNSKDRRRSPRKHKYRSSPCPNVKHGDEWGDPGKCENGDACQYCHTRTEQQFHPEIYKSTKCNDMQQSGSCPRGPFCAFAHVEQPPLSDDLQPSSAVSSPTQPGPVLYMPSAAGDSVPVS
Technique: RNA Bind-n-Seq
Form: RNA
Matrix: in vitro
Tested at: not given
Setting: RNA with constant flanks, human-mouse chimeric sites, ends assumed
Reference: input RNA pool
Direction: higher = stronger binding
Constant ends, left off below: GGGAGUUCUACAGUCCGACGAUC … CAACAGAGGAUUGAGCAUCA
Oligonucleotide | bound/input enrichment [ratio]
GAGUCGAGCAAACUUGAAACAAUUCGUUAUCUUGCAGCCUCAGUGUUUUUACUUGCCGCGAUAGCAUUGGGGUUUUAUAUAGAUUCUAAGGAGAACUGACGAUGAUGCUGCCGCUGCUGC | 0.38
UUAUCCAAGACUCAACGAAAGACUCCAACGGUUAUUCAUAAACAUUAUCAAAUUCAUCGCAUUAGACAUUUUUAUAUGAGAAAAGUCAAAUUUACUCAACAGAAUUACCAUGACAGACUG | 5.25
CGGAAGUUCUUGAUUUAUCAUUUUUCUCUUUUCUUUCUUUCCUUUAGGAAAAGCCUAAAGAUUAGGUUGUAAGAAAAACAGAAGCCAUGUUUCGAAGACCUGUGUUAAUUACAGGUAGUC | 0.144
AAAGAACCUCUCUCUGAUGAAGAUGAGGAAGACAAUGAUGAUGUUGAACCCAUUUCUGAAUUUCGAUUUGUGCCUAGUGAUAAGUCAGCAUUGGAGGCAAUGUUCACAGCAAUGUGUGAG | 0.282
GUGUCCUGCUUUCAACUUAAAUCACUGCAUUUUUACUACUGUUCUGUUAAAAUCAGGACUGUAGCGCUGUGUCACCACAUGAGAGUUCAGAAGCAGCCUUUCUGUGGAGGGUGGGAAUGA | 0.145
CACAGAGGAGAUCUGCUGUUCCUCACGAAUUUCCGGGAGGACCCCAUCAGAGCUGGUGAAAUAGUUGUUUUUAAGGUUGAAGGAAGAGACAUUCCAAUAGUUCACAGAGUAAUCAAGGUU | 4.04

Set 5
Target: UBE2T UBC core domain (UniProt Q9NPD8)
Technique: yeast two-hybrid
Matrix: yeast
Setting: mostly zero background
Reference: not given
Direction: higher = stronger interaction
B1: TRIM11 RING domain (UniProt Q96F44); chain LSTNLQEEATCAICLDYFTDPVMTDCGHNFCRECIRRCWGQPEGPYACPECRELSPQRNLRP
B2: RUFY1 RING domain (UniProt Q96T51); chain QALKGHAWLKDDEATHCRQCEKEFSISRRKHHCRNCGHIFCNTCSSNELALPSYPKPVRVCDSCHTLLLQRCSSTAS
B3: BFAR RING domain (UniProt Q9NZS9); chain GPQISVSEFSCHCCYDILVNPTTLNCGHSFCRHCLALWWASSKKTECPECREKWEGFPKVS
B4: MID2 RING domain (UniProt Q9UJV3); chain KMETLESELTCPICLELFEDPLLLPCAHSLCFSCAHRILVSSCSSGESIEPITAFQCPTCRYVISLNHRGL
B5: MARCHF1 RING domain (UniProt Q8TCQ1); chain TAPRSQSRLSVCPSTQDICRICHCEGDEESPLITPCRCTGTLRFVHQSCLHQWIKSSDTRCCELCKYDFIMETKLKPLRKWE
B6: VPS8 RING domain (UniProt Q8N3P4); chain TRGLNPKQDYCSICLQQYKRRQEMADEIIVFSCGHLYHSFCLQNKECTVEFEGQTRWTCYKCSSSNKVGKLSE
B7: ARIH2 RING domain (UniProt O95376); chain HVPTSHPPHHCAVCMQFVRKENLLSLACQHQFCRSCWEQHCSVLVKDGVGVGVSCMAQDCPLRTPEDFVF
B8: ZNRF4 RING domain (UniProt Q8WWF5); chain VRTFTWHNDLCAICLDEYEEGDQLKILPCSHTYHCKCIDPWFSQAPRRSCPVCKQSVAATEDSF
Target sequence (chain): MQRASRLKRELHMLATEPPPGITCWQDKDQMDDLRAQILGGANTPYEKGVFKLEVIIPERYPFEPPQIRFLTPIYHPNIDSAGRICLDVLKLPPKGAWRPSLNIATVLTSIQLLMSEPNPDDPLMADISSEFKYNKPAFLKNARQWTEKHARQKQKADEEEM
Molecule | lacZ reporter activity
B1 (TRIM11 RING domain) | 0
DDVLTKDAGECVICLEELLQGDTIARLPCLCIYHKSCIDSWFEVNRSCPEHPAD (ZNRF1 RING domain (UniProt Q8ND25)) | 0
B2 (RUFY1 RING domain) | 0
B3 (BFAR RING domain) | 0
ASEEEFQFLRCQQCQAEAKCPKLLPCLHTLCSGCLEASGMQCPICQAPWPLGADTP (PML RING domain (UniProt P29590)) | 0
B4 (MID2 RING domain) | 0
B5 (MARCHF1 RING domain) | 0
B6 (VPS8 RING domain) | 0
B7 (ARIH2 RING domain) | 0
B8 (ZNRF4 RING domain) | 0

Set 6
Target: Interferon regulatory factor 5, full length, phosphomimetic (IRF5, Homo sapiens, UniProt Q13568-2, residues 1-514, K96S/S451D/S453D/S456D/S462D)
Technique: protein-binding microarray
Form: double-stranded DNA, one strand shown
Matrix: in vitro
Tested at: 250 nM
Setting: 60-bp whole probe
With: salmon DNA 0.4 mg/ml
Reference: random background probes
Direction: higher = stronger binding
Constant ends, left off below: GCCTAGCAC … GTCTTGATTCGCTTGACGCTGCTG
Oligonucleotide | log fluorescence [z-score]
GACGCTATCGGGACTGGGGACGTGCTA | 1.33
CAGCTTCTAATATTCATTTTGTGCTAG | 0.712
GACGATATCGGATTTCGAGACGTGCTA | 1.98
GACGGTTTCGGGTTTTGGGACGTGCTA | 6.91
GACGGCTTCCTTATCCTGACGTGCTAG | -0.429
GACTGTTTCGACTTTCGGGACGTGCTA | 8.29
TTAGGTATCCTTTTCCTTTAGTGCTAG | 0.582
TCATCATTGCCTATTTTACTGTGCTAG | 0.582
GACGATATCGGTTTCGAGACGTGCTAG | 7.71
CACGGTATCGGACTGGGGACGTGCTAG | 0.81
TCAGTTTTGCTAAGTCAAACTGTGCTA | 1.33
GGCGGACTGCTACTGCTGACGTGCTAG | -0.501
TTAGGACTGGACTATCGATTAGTGCTA | 5.01
CACTCTCTACATGTGTTTACGTGCTAG | 0.453
CCTTGTACGTCGTTTCCCAAGGTGCTA | 0.0203
TCATGTTTCCTCTTTCTACTGTGCTAG | 1.86
TCAACTCTCTTGTCTGGAACTGTGCTA | 0.369
GACGGACTGCTGCTGCTGACGTGCTAG | -0.811

Single results of other studies
Parent: E2F7 docking peptide (human); SSAQRRLEIPSGG; partner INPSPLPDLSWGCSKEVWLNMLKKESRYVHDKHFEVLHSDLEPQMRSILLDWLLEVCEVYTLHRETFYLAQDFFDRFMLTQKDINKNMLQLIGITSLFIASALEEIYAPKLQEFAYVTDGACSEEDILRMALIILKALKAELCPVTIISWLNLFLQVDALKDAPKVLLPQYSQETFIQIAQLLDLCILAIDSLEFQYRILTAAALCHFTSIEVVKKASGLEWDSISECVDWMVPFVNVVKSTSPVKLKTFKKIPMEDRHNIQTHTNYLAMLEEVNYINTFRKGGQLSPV
Substitution | target | test | test system | conditions | scale | endpoint | result
SSAQRRLEAPSGG [I9A] | CCNE2, cyclin fold, Cln2 fusion (human) | yeast growth competition, sequencing | yeast | weak parent motif | reference: not given, higher = stronger binding | normalised enrichment score | 0.409

Repeated from above (set 5):
Molecule | lacZ reporter activity
B1 (TRIM11 RING domain) | 0
DDVLTKDAGECVICLEELLQGDTIARLPCLCIYHKSCIDSWFEVNRSCPEHPAD (ZNRF1 RING domain (UniProt Q8ND25)) | 0
B2 (RUFY1 RING domain) | 0
B3 (BFAR RING domain) | 0
ASEEEFQFLRCQQCQAEAKCPKLLPCLHTLCSGCLEASGMQCPICQAPWPLGADTP (PML RING domain (UniProt P29590)) | 0
